Measurements pooled from the literature.
Numbered parts are unrelated; each lists some results of a single study.
Chain of UniProt Q13237 (whole entry, looked up): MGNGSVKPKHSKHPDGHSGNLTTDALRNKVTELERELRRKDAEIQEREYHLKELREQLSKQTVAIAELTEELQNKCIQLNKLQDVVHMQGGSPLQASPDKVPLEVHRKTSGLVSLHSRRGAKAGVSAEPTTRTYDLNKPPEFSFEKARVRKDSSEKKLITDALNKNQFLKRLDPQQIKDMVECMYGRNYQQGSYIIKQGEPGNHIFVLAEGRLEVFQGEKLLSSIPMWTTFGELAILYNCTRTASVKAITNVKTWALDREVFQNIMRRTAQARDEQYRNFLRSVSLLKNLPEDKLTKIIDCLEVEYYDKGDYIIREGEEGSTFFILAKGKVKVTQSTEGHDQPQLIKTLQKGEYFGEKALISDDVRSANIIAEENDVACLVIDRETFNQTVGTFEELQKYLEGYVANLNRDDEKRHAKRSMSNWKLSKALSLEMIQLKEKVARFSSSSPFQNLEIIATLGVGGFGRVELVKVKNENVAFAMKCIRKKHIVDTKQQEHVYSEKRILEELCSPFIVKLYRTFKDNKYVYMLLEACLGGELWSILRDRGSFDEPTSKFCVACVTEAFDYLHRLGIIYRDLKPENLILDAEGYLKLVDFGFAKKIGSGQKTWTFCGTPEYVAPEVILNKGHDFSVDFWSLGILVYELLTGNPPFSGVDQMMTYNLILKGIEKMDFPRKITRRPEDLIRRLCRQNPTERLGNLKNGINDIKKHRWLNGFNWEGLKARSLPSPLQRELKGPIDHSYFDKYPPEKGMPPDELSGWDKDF
Chain of UniProt P49137 (whole entry, looked up): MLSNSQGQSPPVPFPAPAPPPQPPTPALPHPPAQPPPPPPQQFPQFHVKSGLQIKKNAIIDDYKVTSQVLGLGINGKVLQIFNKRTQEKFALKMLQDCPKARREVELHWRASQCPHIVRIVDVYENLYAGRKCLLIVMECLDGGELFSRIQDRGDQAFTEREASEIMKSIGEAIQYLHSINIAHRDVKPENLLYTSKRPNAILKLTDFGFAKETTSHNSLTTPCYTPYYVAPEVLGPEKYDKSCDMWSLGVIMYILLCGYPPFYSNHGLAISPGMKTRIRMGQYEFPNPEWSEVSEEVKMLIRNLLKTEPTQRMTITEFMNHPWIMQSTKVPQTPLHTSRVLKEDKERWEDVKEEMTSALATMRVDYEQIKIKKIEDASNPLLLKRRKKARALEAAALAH
Chain of UniProt O75116 (whole entry, looked up): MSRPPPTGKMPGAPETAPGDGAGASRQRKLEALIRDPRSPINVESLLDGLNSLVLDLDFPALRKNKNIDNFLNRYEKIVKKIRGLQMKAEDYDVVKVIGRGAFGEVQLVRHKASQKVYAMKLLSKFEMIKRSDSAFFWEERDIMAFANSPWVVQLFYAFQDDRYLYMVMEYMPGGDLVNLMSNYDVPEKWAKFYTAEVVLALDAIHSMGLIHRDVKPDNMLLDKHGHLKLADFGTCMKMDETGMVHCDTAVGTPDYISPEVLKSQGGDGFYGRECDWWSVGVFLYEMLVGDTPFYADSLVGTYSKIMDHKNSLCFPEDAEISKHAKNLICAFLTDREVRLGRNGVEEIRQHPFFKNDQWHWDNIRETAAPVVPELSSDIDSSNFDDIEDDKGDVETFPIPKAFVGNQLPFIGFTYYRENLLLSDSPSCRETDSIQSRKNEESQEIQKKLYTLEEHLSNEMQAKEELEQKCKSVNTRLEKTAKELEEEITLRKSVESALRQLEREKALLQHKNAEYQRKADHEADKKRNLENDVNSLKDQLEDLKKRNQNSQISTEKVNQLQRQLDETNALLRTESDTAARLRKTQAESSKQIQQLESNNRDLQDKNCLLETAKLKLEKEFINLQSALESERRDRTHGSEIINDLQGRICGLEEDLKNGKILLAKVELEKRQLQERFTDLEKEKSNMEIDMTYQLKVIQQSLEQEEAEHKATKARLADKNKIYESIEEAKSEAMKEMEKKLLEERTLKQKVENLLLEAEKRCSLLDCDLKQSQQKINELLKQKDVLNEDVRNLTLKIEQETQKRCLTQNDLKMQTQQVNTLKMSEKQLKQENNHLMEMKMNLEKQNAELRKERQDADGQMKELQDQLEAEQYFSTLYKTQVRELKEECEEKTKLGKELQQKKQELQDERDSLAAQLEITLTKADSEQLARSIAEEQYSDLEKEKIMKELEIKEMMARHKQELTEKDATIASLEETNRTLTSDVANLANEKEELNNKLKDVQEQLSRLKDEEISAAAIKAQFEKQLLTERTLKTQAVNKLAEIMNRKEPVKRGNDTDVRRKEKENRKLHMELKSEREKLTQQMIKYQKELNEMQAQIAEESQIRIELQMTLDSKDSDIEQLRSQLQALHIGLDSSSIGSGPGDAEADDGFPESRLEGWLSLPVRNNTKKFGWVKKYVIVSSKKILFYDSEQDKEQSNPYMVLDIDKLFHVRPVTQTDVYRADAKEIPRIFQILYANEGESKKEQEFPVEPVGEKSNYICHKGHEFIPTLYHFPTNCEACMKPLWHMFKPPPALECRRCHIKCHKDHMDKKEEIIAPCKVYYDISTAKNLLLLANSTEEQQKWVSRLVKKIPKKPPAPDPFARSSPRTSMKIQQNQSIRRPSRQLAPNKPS
Chain of UniProt O14976 (whole entry, looked up): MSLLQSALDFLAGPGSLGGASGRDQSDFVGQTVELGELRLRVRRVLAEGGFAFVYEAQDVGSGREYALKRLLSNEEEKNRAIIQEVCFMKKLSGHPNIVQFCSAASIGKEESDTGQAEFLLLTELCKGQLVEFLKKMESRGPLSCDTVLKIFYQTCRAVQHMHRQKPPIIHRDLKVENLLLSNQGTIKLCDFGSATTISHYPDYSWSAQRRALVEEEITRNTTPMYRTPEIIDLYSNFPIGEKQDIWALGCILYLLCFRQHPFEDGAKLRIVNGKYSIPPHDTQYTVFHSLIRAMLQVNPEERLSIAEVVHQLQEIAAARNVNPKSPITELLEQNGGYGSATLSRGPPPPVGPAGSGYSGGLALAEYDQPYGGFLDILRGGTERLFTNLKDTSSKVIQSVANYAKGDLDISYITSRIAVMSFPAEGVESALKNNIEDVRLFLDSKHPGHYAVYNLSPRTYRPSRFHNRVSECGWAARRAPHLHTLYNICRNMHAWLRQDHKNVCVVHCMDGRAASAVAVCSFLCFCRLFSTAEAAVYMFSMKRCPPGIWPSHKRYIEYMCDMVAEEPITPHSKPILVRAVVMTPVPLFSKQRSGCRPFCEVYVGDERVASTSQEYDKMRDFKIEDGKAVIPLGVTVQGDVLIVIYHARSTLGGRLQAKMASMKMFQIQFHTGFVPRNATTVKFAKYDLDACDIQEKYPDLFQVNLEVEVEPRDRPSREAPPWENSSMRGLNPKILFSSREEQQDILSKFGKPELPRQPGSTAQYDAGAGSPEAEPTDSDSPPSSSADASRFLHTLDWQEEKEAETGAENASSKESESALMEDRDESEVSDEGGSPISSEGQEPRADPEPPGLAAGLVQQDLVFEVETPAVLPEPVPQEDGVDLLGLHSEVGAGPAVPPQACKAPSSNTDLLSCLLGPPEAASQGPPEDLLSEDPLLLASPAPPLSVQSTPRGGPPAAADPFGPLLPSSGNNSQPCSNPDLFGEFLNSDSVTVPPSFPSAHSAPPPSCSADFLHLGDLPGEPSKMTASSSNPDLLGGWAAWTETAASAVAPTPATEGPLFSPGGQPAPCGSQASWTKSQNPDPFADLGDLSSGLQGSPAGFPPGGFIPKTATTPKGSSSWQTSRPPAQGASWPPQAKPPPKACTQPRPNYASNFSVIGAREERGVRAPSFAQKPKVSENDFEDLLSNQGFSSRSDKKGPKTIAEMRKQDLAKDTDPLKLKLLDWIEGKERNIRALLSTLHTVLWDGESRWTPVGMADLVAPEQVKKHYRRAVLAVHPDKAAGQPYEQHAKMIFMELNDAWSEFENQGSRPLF
Chain of UniProt Q02750 (whole entry, looked up): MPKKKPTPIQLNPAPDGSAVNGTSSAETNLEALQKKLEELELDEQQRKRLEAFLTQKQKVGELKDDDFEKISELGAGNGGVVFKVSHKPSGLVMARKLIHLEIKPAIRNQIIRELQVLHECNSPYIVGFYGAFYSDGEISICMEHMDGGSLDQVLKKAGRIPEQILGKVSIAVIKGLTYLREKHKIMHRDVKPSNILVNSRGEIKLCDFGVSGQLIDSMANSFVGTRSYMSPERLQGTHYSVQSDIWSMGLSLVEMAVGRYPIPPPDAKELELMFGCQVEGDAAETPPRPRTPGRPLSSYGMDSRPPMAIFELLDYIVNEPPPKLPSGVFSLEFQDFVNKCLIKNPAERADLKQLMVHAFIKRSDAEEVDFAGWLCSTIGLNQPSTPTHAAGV
Chain of UniProt Q96L34 (whole entry, looked up): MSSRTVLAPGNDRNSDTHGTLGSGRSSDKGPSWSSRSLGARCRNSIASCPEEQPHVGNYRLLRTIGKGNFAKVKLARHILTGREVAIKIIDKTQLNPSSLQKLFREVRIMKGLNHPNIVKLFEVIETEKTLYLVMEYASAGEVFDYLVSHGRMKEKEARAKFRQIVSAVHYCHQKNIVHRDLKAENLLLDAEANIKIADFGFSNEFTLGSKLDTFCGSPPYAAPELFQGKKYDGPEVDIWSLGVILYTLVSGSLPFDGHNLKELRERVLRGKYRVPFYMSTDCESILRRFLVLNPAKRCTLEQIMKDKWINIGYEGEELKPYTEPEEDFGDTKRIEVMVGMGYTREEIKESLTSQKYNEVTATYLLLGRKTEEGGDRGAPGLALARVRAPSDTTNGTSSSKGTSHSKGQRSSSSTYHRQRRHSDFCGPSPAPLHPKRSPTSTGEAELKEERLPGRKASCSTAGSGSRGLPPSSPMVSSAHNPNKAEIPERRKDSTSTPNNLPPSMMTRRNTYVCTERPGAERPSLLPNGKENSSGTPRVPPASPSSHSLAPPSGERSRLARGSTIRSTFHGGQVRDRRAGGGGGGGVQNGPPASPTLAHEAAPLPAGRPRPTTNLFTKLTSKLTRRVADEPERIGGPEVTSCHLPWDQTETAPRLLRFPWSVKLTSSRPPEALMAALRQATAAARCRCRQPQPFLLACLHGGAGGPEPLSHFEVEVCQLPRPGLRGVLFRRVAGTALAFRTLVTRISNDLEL

Study 1 — Structure (SMILES): O=C1NC(=O)/C(=C/c2ccc3c(c2)OC(F)(F)O3)S1; effect on: enzyme activity; action: inhibitor; concentration: 0.5 µM; baseline: control
It gave 96.8% for remaining activity (CLK3 (Homo sapiens, UniProt P49761)).
The remaining activity was 92.5% (NEK3 (Homo sapiens, UniProt P51956)).
It gave 108% for remaining activity (RPS6KA4 (Homo sapiens, UniProt O75676)).
The remaining activity was 96.8% (MARK2 (Homo sapiens, UniProt Q7KZI7)).
The remaining activity was 90.1% (DDR2 (Homo sapiens, UniProt Q16832)).
For PAK3 (Homo sapiens, UniProt O75914): remaining activity read 93.1%.
It gave 104% for remaining activity (PRKG2 (Homo sapiens, UniProt Q13237)).
MINK1 (Homo sapiens, UniProt Q8N4C8) — remaining activity: 90.1%.
The remaining activity was 95.7% (MAPK11 (Homo sapiens, UniProt Q15759)).
MARK4 (Homo sapiens, UniProt Q96L34) — remaining activity: 97.8%.
AKT2 (Homo sapiens, UniProt P31751) — remaining activity: 96.2%.
The remaining activity was 93.7% (ROCK1 (Homo sapiens, UniProt Q13464)).
The remaining activity was 102% (GRK4 (Homo sapiens, UniProt P32298)).
For MAP2K1 (Homo sapiens, UniProt Q02750): remaining activity read 95.6%.
KDR (Homo sapiens, UniProt P35968) — remaining activity: 94.6%.

Study 2 — medium: plasma; route: oral
SMILES: COc1ccc(-c2c(Nc3ccccn3)[nH]c3c(C4=CCCCC4)c(-c4ccccc4)nn3c2=O)cc1
It gave 5280 ng/mL for “plasma concentration, mean” (human patients; 150 mg once daily, 8 h, cycle 1).
For LC-MS/MS; human; 200 mg twice daily, 48 h, single dose: “plasma concentration, mean” read 642 ng/mL.
For cancer patients; 100 mg, 4 h post-dose, single dose: “plasma concentration, mean” read 1130 ng/mL.
For LC-MS/MS; human; 200 mg twice daily, 0.5 h, single dose: “plasma concentration, mean” read 118 ng/mL.
For human patients; 400 mg once daily, 8 h, cycle 1: “plasma concentration, mean” read 3930 ng/mL.
For cancer patients; 150 mg, 72 h post-dose, single dose: “plasma concentration, mean” read 300 ng/mL.
For cancer patients; 400 mg, 72 h post-dose, single dose: “plasma concentration, mean” read 101 ng/mL.
The “plasma concentration, mean” was 3520 ng/mL (human patients; 400 mg once daily, 24 h, cycle 1).
cancer patients; 400 mg, 24 h post-dose, single dose — “plasma concentration, mean”: 779 ng/mL.
For human patients; 100 mg once daily, 8 h, cycle 1: “plasma concentration, mean” read 3710 ng/mL.
For human patients; 400 mg once daily, 0 h, cycle 1: “plasma concentration, mean” read 3390 ng/mL.
For human patients; 200 mg once daily, 0.5 h, cycle 1: “plasma concentration, mean” read 6670 ng/mL.

Study 3 — effect on: cell-free assay; method: competition with immobilised ligand; concentration: 1 µM
Structure (SMILES): O=S(=O)(NC1CCC(c2cc(F)ccc2F)(S(=O)(=O)c2ccc(Cl)cc2)CC1)C(F)(F)F (stereo not drawn)
ACVR2A (Homo sapiens, UniProt P27037) — remaining binding: 63%.
For RIOK3 (Homo sapiens, UniProt O14730): remaining binding read 83%.
For PRKX (Homo sapiens, UniProt P51817): remaining binding read 100%.
For Aurora kinase A (AURKA, Homo sapiens, UniProt O14965): remaining binding read 100%.
PIP4K2B (Homo sapiens, UniProt P78356) — remaining binding: 68%.
The remaining binding was 100% (PDGFRB (Homo sapiens, UniProt P09619)).
It gave 100% for remaining binding (DSTYK (Homo sapiens, UniProt Q6XUX3)).
The remaining binding was 85% (CSNK1E (Homo sapiens, UniProt P49674)).
It gave 100% for remaining binding (CAMK2D (Homo sapiens, UniProt Q13557)).
For MAPKAPK2 (Homo sapiens, UniProt P49137): remaining binding read 93%.
It gave 100% for remaining binding (ROCK2 (Homo sapiens, UniProt O75116)).
The remaining binding was 100% (PRKG2 (Homo sapiens, UniProt Q13237)).
It gave 97% for remaining binding (FLT3 (Homo sapiens, UniProt P36888, K663Q)).
For EIF2AK2 (Homo sapiens, UniProt P19525): remaining binding read 87%.
For INSRR (Homo sapiens, UniProt P14616): remaining binding read 100%.
RET (Homo sapiens, UniProt P07949, M918T) — remaining binding: 92%.
For MAP2K6 (Homo sapiens, UniProt P52564): remaining binding read 100%.
The remaining binding was 100% (FLT3 (Homo sapiens, UniProt P36888)).
It gave 89% for remaining binding (GAK (Homo sapiens, UniProt O14976)).
For LYN (Homo sapiens, UniProt P07948): remaining binding read 91%.
For KIT (Homo sapiens, UniProt P10721, D816H): remaining binding read 71%.
Macrophage colony-stimulating factor 1 receptor, autoinhibited (CSF1R, Homo sapiens, UniProt P07333) — remaining binding: 100%.
The remaining binding was 100% (HIPK3 (Homo sapiens, UniProt Q9H422)).
For Tyrosine-protein kinase ABL1, phosphorylated (ABL1, Homo sapiens, UniProt P00519, Y253F): remaining binding read 100%.
CAMK1 (Homo sapiens, UniProt Q14012) — remaining binding: 84%.

Study 4 — organism: Plasmodium berghei; action: inhibitor; cells: Huh-7; strain: GFP-expressing sporozoites, liver stage; concentration: 10 µM; time: 24 h; baseline: untreated control
With `CN(C)CCCN1c2ccccc2Sc2ccc(Cl)cc21` the infection rate was 79.1%.
With `NC12CC3CC(CC(C3)C1)C2` the infection rate was 86.5%.
For `CC(=O)N(O)CCCCCNC(=O)CCC(=O)N(O)CCCCCNC(=O)CCC(=O)N(O)CCCCCN`, the infection rate was 39.6%.
With `CCN(CC)CCCC(C)Nc1ccnc2cc(Cl)ccc12` (stereo not drawn) the infection rate was 119%.
With `CCC(=O)OCC(=O)[C@@]1(OC(=O)CC)[C@@H](C)C[C@H]2[C@@H]3CCC4=CC(=O)C=C[C@]4(C)[C@@]3(F)[C@@H](O)C[C@@]21C` the infection rate was 85.1%.
`CNCCc1ccccn1` has an infection rate of 91.5%.
For `CC(=O)Nc1ccccc1`, the infection rate was 105%.
`C[N+](C)(C)CCOP(=O)(O)OP(=O)([O-])OC[C@H]1O[C@@H](n2ccc(N)nc2=O)[C@H](O)[C@@H]1O` has an infection rate of 0.92%.

For quick reference, copied from above (study 3):
For INSRR (Homo sapiens, UniProt P14616): remaining binding read 100%.
For Tyrosine-protein kinase ABL1, phosphorylated (ABL1, Homo sapiens, UniProt P00519, Y253F): remaining binding read 100%.
For LYN (Homo sapiens, UniProt P07948): remaining binding read 91%.
For KIT (Homo sapiens, UniProt P10721, D816H): remaining binding read 71%.
PIP4K2B (Homo sapiens, UniProt P78356) — remaining binding: 68%.
